Measurements from different studies.
Parts stem from different laboratories: compare values within a part only. Positions count from the first letter of the parent shown.

Study 1 — method: protein-binding microarray; form: double-stranded DNA, one strand shown; matrix: in vitro; concentration: 0.8 µM; notes: whole 60-bp probe, no competitor; reading: higher = stronger binding; all sequences stand within: … GTCTTGATTCGCTTGACGCTGCTG
Target: Centromere-binding protein 1, full length, N-terminal tag (CBF1, Saccharomyces cerevisiae, UniProt P17106, residues 1-351)
Chain of UniProt P17106 (whole entry, looked up): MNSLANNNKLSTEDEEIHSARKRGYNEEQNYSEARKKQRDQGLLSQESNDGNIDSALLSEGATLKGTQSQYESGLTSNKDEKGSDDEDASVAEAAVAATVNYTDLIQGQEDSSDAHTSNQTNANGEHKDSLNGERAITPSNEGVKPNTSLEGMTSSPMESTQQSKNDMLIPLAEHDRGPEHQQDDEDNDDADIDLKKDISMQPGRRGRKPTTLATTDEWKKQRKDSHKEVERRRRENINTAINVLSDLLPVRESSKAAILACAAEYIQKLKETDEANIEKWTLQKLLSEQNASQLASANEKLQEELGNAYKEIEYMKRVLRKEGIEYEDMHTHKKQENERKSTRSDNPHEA
Strand	fluorescence intensity
GAACGGTAATTATGTCACGGCTAAAATTTTCATTAG	709 a.u.
CCTAACTACTATAATCACGAAGAATAGCTTCGTACA	517 a.u.
CTACATTGTTAATAGGCTCAGCTGTTCATAAAATTC	694 a.u.
CTAGAACTCCTTTGCTGCGTGGCGTATTCCTCTTTC	503 a.u.
CTATCTATAGCTGCACACCTGATTTTTTTGCTATTC	800 a.u.
CTAGATTTAAGGTGAGCCGTCAGGGGCTTTTAATTC	517 a.u.
CTATGCTCATCTCATCACCAGTAAAAAAATGTGTTC	541 a.u.
GAACCAGACAAGAGTCAGGTGACGCTGCAGATGTAG	4850 a.u.
CTATACCAAAACAACGTGACAACGAAATTCCCCTTC	3050 a.u.
GAAACGTTACGGCACACCGTGATGTACCCGCATTAG	531 a.u.
CTACACTGTTACAATTACCAGGTGAGTAGGATATTC	604 a.u.
CTATGGGATAACCGTCACGTGACTCTCACTAGGTTC	47300 a.u.
CCTAACTACTATAGAAACGTGACATAGCTTCGTACA	2060 a.u.

Study 2 — method: protein binding microarray; form: double-stranded DNA, one strand shown; matrix: in vitro; concentration: not given; reference: not given; reading: higher = stronger binding
Target: Histone acetyltransferase KAT6A, winged helix 1, GST fusion (KAT6A, Homo sapiens, UniProt Q92794, residues 1-85)
Notes: 8-mer, flanks averaged, mean of 2 arrays, mostly near background
Construct (chain): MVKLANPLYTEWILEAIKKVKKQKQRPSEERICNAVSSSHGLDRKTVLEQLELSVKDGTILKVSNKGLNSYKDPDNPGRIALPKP
Strand	E-score
GGGCCCCA	0.0277
CCGGCTAG	0.219
AGTCGGCG	0.292
GACTGTGC	0.00868
ACTCATGA	0.0006
GATCATGA	-0.151
CTCCCTCA	-0.168
GCTGAACA	-0.223
GGTAAATA	0.0326
ATATCACA	-0.138
TACAGGCA	-0.0695
CAATTGAA	-0.0996
GCGGGCAA	0.228
ACGAAAAG	-0.117
TGCAACCA	-0.285
AACTCGCT	-0.0168
AGTAATGC	0.0868
CTGCGTTA	0.0333
ACGATGGA	0.0416
GAGGGACA	-0.168
CATCCTGG	-0.164
CGCTGTAG	0.225
CAGATCGC	0.182
CATACAGG	-0.19
AGATAAAT	-0.264

Study 3 — method: protein-binding microarray; form: double-stranded DNA, one strand shown; matrix: in vitro; concentration: 2540 nM top; notes: 60-bp whole probe; with: salmon DNA 0.4 mg/ml; reference: random background probes; reading: higher = stronger binding; all sequences stand within: GCCTAGCAC … GTCTTGATTCGCTTGACGCTGCTG
Target: Interferon regulatory factor 3, full length, phosphomimetic (IRF3, Homo sapiens, UniProt Q14653, residues 1-427, S386D/S396D/S398D/S402D/T404D/S405D)
Chain of UniProt Q14653 (whole entry, unmodified, looked up): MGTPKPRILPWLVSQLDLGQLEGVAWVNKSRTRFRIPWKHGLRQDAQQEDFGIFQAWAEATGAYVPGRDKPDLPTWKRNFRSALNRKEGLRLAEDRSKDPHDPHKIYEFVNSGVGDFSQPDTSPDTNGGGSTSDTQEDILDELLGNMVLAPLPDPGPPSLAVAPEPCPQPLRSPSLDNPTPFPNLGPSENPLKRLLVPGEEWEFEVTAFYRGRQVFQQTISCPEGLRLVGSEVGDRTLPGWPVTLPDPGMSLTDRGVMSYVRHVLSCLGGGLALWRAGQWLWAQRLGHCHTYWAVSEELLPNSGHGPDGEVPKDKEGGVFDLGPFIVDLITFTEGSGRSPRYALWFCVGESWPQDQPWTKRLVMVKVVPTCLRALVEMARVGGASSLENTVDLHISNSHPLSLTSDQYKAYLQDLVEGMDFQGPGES
Strand	fitted relative affinity [z-score]
GACGGTATCGGACTGAGGACGTGCTAG	1.5
CACGGACTGCTACTGCTGACGTGCTAG	-0.653
TTAGGTTTAGGGTATCGGTTAGTGCTA	0.363
AAATGTGTTAGAAACAGGTTGTGCTAG	0.216
TTAGGTCTCGGTAACGGTTAGTGCTAG	-0.2
TCAATTTTTTTTCACTAACTGTGCTAG	0.668
TCAAGTTTCCATTTTCTACTGTGCTAG	8.55
ACTCGTGTTTTTCTCCTATTGTGCTAG	0.75
GCTGTCATCGATTTCTTCCCGTGCTAG	0.0729
TATCCTTCCCCTCTAGGTTCGTGCTAG	2.91
TTGGGTTTCCTACTGCTTTAGTGCTAG	3.2
CTAGGTTTCGACACTGGGTTAGTGCTA	2.41
TTAGGTTTCCTTTCCCCTTAGTGCTAG	10.6
TTAGATCTCAGTTTCGATTGGTGCTAG	2.76
TGATGACTGGAGTCTGGACTAGTGCTA	-0.942
TCACGTCTCTATCAAAAACTGTGCTAG	0.124

Study 4 — target: CCND3, cyclin fold, Cln2 fusion (human); method: yeast growth competition, sequencing; matrix: yeast; notes: weak parent motif; reference: not given; reading: higher = stronger binding
Starting sequence: PKMYT1 docking peptide (human); SFEPRNLLSLFED; partner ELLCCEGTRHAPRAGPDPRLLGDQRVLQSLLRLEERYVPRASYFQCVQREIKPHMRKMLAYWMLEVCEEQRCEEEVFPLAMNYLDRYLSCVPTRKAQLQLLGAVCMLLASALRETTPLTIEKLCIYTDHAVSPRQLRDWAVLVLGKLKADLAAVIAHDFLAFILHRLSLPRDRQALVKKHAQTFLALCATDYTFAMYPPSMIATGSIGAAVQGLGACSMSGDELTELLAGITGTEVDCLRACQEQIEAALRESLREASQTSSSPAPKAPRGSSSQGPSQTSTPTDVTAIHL
Change	normalised enrichment score
L10T	0.0717
L10H	0.117
F2H	0.0554
L7W	0.0516
E12M	0.0519
P4V	0.0367
R5C	0.0638
S9P	0.129
L10V	0.0829
E12K	0.0112
N6S	0.126
D13T	0.066
F2R	0.11

Study 5 — method: RNA Bind-n-Seq; form: RNA; matrix: in vitro; concentration: not given; notes: RNA with constant flanks, ends assumed; reference: input RNA pool; reading: higher = stronger binding
Target: RING finger protein unkempt homolog, zinc fingers 1-6, GST-SBP tag (UNK, Homo sapiens, UniProt Q9C0B0, residues 30-357)
Chain of UniProt Q9C0B0 (30-357, looked up): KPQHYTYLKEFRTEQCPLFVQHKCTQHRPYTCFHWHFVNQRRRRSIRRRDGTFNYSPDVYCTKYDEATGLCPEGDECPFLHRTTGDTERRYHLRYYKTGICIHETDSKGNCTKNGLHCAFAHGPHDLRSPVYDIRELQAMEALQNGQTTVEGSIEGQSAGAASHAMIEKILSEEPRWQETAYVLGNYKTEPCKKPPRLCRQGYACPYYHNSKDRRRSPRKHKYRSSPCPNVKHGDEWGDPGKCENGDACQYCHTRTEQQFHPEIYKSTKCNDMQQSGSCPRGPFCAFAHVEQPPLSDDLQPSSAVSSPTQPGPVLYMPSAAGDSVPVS
All sequences stand within: GGGAGUUCUACAGUCCGACGAUC … CAACAGAGGAUUGAGCAUCA
Strand	bound/input enrichment
CUACAAGAUGUUCUGCAGUUGUUCAAGUUCUUUUGUGUUUUGUGGACCUAUGGUUCCCGCCUUUCAAAUCCACUUAACUGCACUGUGAAGUCAGAGCUGCAGACUCAAGCUCUUUACAUA	0.12 ratio
GGAUUCUAUGAGUUUCUAAAUUGGUUUGAUGAAAGAGCAUGGUACCCACUGGGAAGAACCGUGGGUGGCACCGUUUACCCAGGGUUGAUGAUAACAGCUGGCCUUAUUCAUUGGAUUUUA	0.134 ratio
UAAAGCAGGUUCAAAAACACAUGAACUGCAGAUGCCAUAGGCCUCAAAUCAGCUGUAAUUCCCGGAGACACGUGUUGAUCUAGUUAUCUAACAUUGUUGUUAUAAGAAAAUGAGUUUACU	0.118 ratio
UCCCAGCCCCUCAUUAGAUUGUUUUCUUCCCAGAGCCCAGGGUCGUGAUAUAUACAUCUAAACCGCGUUUUGCAUUAUUUCUAGAUGAGUGCAACUGUCAAAGCAAUAUGGGUUCACUGG	1.07 ratio
CACCUCAAAGUCUUUGCAAAACCCAAAAUCACAUAUGUAGAGAACCAGACUGCCAUGGAAUCCGAGGAGCAGGUCACUCUUACCUGUGAAGCCUCCGGAGACCCCAUUCCCUCCAUCACC	0.271 ratio
